Measurements from different studies.
Lines come from different studies, so protocols differ. “And” joins repeats or separate records; there may be more than shown.

SMILES | cell line | test | test system | setting | scale | endpoint | value
Cc1cccc(-c2[nH]c(CNc3ccccc3F)nc2-c2ccc3ncnn3c2)n1 | CD8+ T cells from myeloma patient | ELISA | human | 1 µM | – | TNF-alpha production | 1.16% and 1.04% and 0.99% and 1.07% and 1.13% and 0.988%
Cn1cc(-c2ccc(-c3cncc(Cl)c3N3CCC4(CCNC4=O)CC3)cc2)cn1 | COLO 205 | gene expression, microarray, measured: TLE2 mRNA | – | concentration not given, 2 h | relative to: untreated cells | log2 fold change | 3.33
CC/C(=N\NC(=O)NCc1cccc(O)c1)c1ccc(O)c(C)c1O | SK-OV-3 | gene expression, microarray, measured: F11R | – | 10 µM, 24 h | relative to: DMSO | log ratio | -2.8
COc1nc(NCc2cn(-c3ccc(C(=O)Nc4ccc(C(F)(F)F)cc4)cc3)nn2)nc(OC)n1 | HCT-116 | annexin V-FITC/PI | – | IC50, 24 h | – | apoptotic cells Total | 33.2%
CCn1cc(-c2cc(Cn3ccnc3)cc3c2CCN([C@H](c2cc(OC)ccn2)C2CC2)C3=O)c(C(F)(F)F)n1 | SNU-16 | cell growth, inhibitor | – | 120 h | – | EC50 | 1.15 µM
O=C(/C=C/C=C/C=C/C1CCCCC1)NC1=C[C@@](O)(/C=C/C=C/C=C/C(=O)NC2=C(O)CCC2=O)[C@@H]2O[C@@H]2C1=O | l33 | cell growth, inhibitor, CellTiter-Glo luminescence | – | 78 h | relative to: day 0 cell count | GI50 | 16.8 µM
CC(C)NCC(O)c1ccc(O)c(O)c1 (centres unmarked) | mouse ventricular cardiomyocytes | – | – | dose not given, 0.419 s | – | sarcomere length | 1.76 µm
CCn1cc(-c2cc(Cn3ccoc3=N)cc3c2CCN([C@@H](C)c2cc(OC)ccn2)C3=O)c(C(F)(F)F)n1 | BT-474 | cell growth, inhibitor | – | 120 h | – | EC50 | 8.81 µM
Cc1cnc(NC2CCOCC2)nc1-n1cnc(C(=O)NC(CN)c2cc(F)cc(Cl)c2)c1 (centres unmarked) | Rec1 | flow cytometry | – | 1 µM, 48 h | – | G2 phase cells | 20.3%
Nc1cccc2c1C(=O)N(C1CCC(=O)NC1=O)C2=O (centres unmarked) | bone marrow CD138+ myeloma cells | XTT | – | 2 µM, phenol red-free RPMI | – | viability | 6%
COc1cnc2cccc(N3CCc4c(cc(Cn5ccnc5C)cc4-c4cn(C)nc4C(F)(F)F)C3=O)c2c1 | HEC-1-A | cell growth, inhibitor | – | 120 h | – | EC50 | > 30 µM

A few entries again:
SMILES | cell line | test | test system | setting | scale | endpoint | value
CC/C(=N\NC(=O)NCc1cccc(O)c1)c1ccc(O)c(C)c1O | SK-OV-3 | gene expression, microarray, measured: F11R | – | 10 µM, 24 h | relative to: DMSO | log ratio | -2.8
CCn1cc(-c2cc(Cn3ccoc3=N)cc3c2CCN([C@@H](C)c2cc(OC)ccn2)C3=O)c(C(F)(F)F)n1 | BT-474 | cell growth, inhibitor | – | 120 h | – | EC50 | 8.81 µM
